# Results from different studies.
# Each line is one published result; not all experiments were run side by side. Numbers after ± are the reported error.
SMILES,assay,test system,setting,scale,quantity,result
CC(=O)N[C@H](CCCCNC(=O)C(C)F)C(=O)N[C@@H](CS)C(=O)N[C@@H](CS)C(=O)N[C@@H](CCC(=O)O)C(=O)N[C@@H](Cc1c[nH]cn1)C(=O)N[C@H](Cc1ccccc1)C(=O)N[C@@H](CCCNC(=N)N)C(=O)N[C@@H](Cc1c[nH]c2ccccc12)C(=O)N[C@@H](CS)C(=O)N[C@@H](CCCNC(=N)N)C(=O)N1CCC[C@H]1C(=O)N[C@H](C(N)=O)C(C)C (stereo partly drawn) [fluorine-18 labelled],,"C57BL/6 mice, male, B16-F10 tumour, blood","intravenous, 1 h",,tissue uptake,0.9 ± 0.1 %ID/g
CSCC[C@@H]1NC(=O)[C@H](CC(=O)O)NC(=O)CNC(=O)[C@H](CCCNC(=N)N)NC(=O)[C@H](C)NC(=O)[C@H](CCC(=O)O)NC(=O)[C@H](CCCNC(=N)N)NC(=O)[C@@H]2CSSC[C@@H]3NC(=O)[C@H](CO)NC(=O)[C@H]([C@@H](C)O)NC(=O)[C@@H]4CCCN4C(=O)[C@H](C)NC(=O)[C@H](Cc4c[nH]c5ccccc45)NC(=O)[C@H](CC(=O)O)NC(=O)CNC(=O)[C@H](CCCNC(=N)N)NC(=O)CNC(=O)[C@H](CCC(N)=O)NC(=O)[C@@H]4CCCN4C(=O)[C@@H](NC(=O)CNC(=O)C(C)F)CSSC[C@H](NC(=O)CNC(=O)[C@H](C)NC(=O)[C@H](CC(C)C)NC(=O)[C@H](CSSC[C@@H](C(=O)NCC(N)=O)NC(=O)[C@H]([C@@H](C)O)NC(=O)[C@H](CCCNC(=N)N)NC(=O)[C@@H]4CCCN4C1=O)NC(=O)[C@H](CC(=O)O)NC(=O)[C@H](CO)NC(=O)[C@H](CC(=O)O)NC(=O)[C@H](CCC(N)=O)NC(=O)[C@H](CO)NC3=O)C(=O)N[C@@H](C(C)C)C(=O)N2 (stereo partly drawn) [fluorine-18 labelled],,"nude mice U-87 MG xenograft, brain","intravenous, 1 h",,tissue uptake,0.09 %ID/g
CN[C@@](C)(C[18F])C(=O)O,,"SCID mouse SK-OV-3 xenograft, brain","30 min, post injection",,tissue uptake,0.3 ± 0.1 %ID/g
CC(C)C[C@H](NC(=O)[C@H](C)NC(=O)[C@H](CCC(=O)O)NC(=O)[C@H](CC(C)C)NC(=O)[C@H](C)NC(=O)[C@H](CCC(=O)O)NC(=O)[C@H](C)NC(=O)[C@H](CC(C)C)NC(=O)[C@H](C)NC(=O)[C@H](CCC(=O)O)NC(=O)[C@H](C)NC(=O)[C@H](CC(C)C)NC(=O)[C@H](Cc1c[nH]cn1)NC(=O)[C@H](CCC(=O)O)NC(=O)[C@H](C)NC(=O)[C@H](CC(C)C)NC(=O)[C@H](C)NC(=O)[C@H](CCC(=O)O)NC(=O)[C@H](C)NC(=O)[C@H](CC(C)C)NC(=O)[C@H](C)NC(=O)[C@H](CCC(=O)O)NC(=O)[C@H](C)NC(=O)[C@H](CC(C)C)NC(=O)[C@H](C)NC(=O)[C@H](C)NC(=O)[C@H](CCC(=O)O)NC(=O)[C@H](Cc1c[nH]c2ccccc12)NC(=O)c1ccc2c(c1)C(=O)OC21c2ccc(O)cc2Oc2cc(O)ccc21)C(=O)N[C@@H](C)C(=O)N[C@@H](C)C(=O)O,no effect,"Sprague-Dawley rat, excised skin","50 µmol/L, 37 °C, FAM-labelled CPP conjugate",baseline: free FAM,apparent skin permeability,no effect
O[C@H]1CCCN[C@@H]1CCCn1cnc2c(Cl)c(Cl)ccc21,,"human, plasma","oral, 300 mg, single dose, healthy volunteers",,AUC,1480 ng·h/mL
CC[C@H](C)[C@H](NC(=O)[C@H](CC(C)C)NC(=O)[C@H](Cc1c[nH]c2ccccc12)NC(=O)[C@H](CCC(N)=O)NC(=O)[C@@H](NC(=O)[C@H](Cc1ccccc1)NC(=O)[C@H](C)NC(=O)[C@H](CCCCNC(=O)COCCOCCNC(=O)COCCOCCNC(=O)CC[C@H](NC(=O)CCCCCCCCCCCCCCCCCCC(=O)O)C(=O)O)NC(=O)[C@H](CCC(N)=O)NC(=O)[C@H](C)NC(=O)[C@@H](NC(=O)[C@H](CCCCN)NC(=O)[C@H](CC(=O)O)NC(=O)[C@H](CC(C)C)NC(=O)C(C)(C)NC(=O)[C@@H](NC(=O)[C@H](CO)NC(=O)[C@H](Cc1ccc(O)cc1)NC(=O)[C@H](CC(=O)O)NC(=O)[C@H](CO)NC(=O)[C@@H](NC(=O)[C@H](Cc1ccccc1)NC(=O)[C@@H](NC(=O)CNC(=O)[C@H](CCC(=O)O)NC(=O)C(C)(C)NC(=O)[C@@H](N)Cc1ccc(O)cc1)[C@@H](C)O)[C@@H](C)O)[C@@H](C)CC)[C@@H](C)CC)C(C)C)C(=O)N[C@@H](C)C(=O)NCC(=O)NCC(=O)N1CCC[C@H]1C(=O)N[C@@H](CO)C(=O)N[C@@H](CO)C(=O)NCC(=O)N[C@@H](C)C(=O)N1CCC[C@H]1C(=O)N1CCC[C@H]1C(=O)N1CCC[C@H]1C(=O)N[C@@H](CO)C(N)=O,,"human, severe hepatic impairment","subcutaneous, 5 mg",,tmax,24 h
O=C(c1ccc(F)c(F)c1Nc1ccc(I)cc1F)N1CC(O)([C@@H]2CCCCN2)C1,measured: retinal detachment,human patients,"oral, dose not given, dose escalation, suspension, grade G4",,treatment-related adverse events,0%
CC1(C)S[C@@H]2[C@H](NC(=O)[C@H](C(=O)O)c3ccsc3)C(=O)N2[C@H]1C(=O)O,,rat plasma,"30 ng/mL, 24 h, room temperature, short-term stability",baseline: nominal concentration,relative error,1.3%
Oc1ccc2ccc3cccc4ccc1c2c34,HPLC-fluorescence,"Wistar rat, male, liver","oral, 4 mg/kg PY, 24 h",,tissue concentration,1300 ± 200 ng/g
CCCCCCCCCN(C)C,liver S9 substrate depletion,rainbow trout liver S9,six-surfactant mixture,,in vivo intrinsic clearance,187 mL/h/g liver
CCCCCCCCCCCCCC[N+](C)(C)C,ultrafiltration,human serum,,,unbound fraction in blood,0.171
O=c1[nH]c(=O)[nH]c(=O)[nH]1,LC-MS/MS,"rat, non-pregnant female, serum","oral, 1000 mg/kg/day, 10 days, LOD 0.4 µg/mL",,serum concentration,not detected

# Repeated from above:
SMILES,assay,test system,setting,scale,quantity,result
O[C@H]1CCCN[C@@H]1CCCn1cnc2c(Cl)c(Cl)ccc21,,"human, plasma","oral, 300 mg, single dose, healthy volunteers",,AUC,1480 ng·h/mL
CC[C@H](C)[C@H](NC(=O)[C@H](CC(C)C)NC(=O)[C@H](Cc1c[nH]c2ccccc12)NC(=O)[C@H](CCC(N)=O)NC(=O)[C@@H](NC(=O)[C@H](Cc1ccccc1)NC(=O)[C@H](C)NC(=O)[C@H](CCCCNC(=O)COCCOCCNC(=O)COCCOCCNC(=O)CC[C@H](NC(=O)CCCCCCCCCCCCCCCCCCC(=O)O)C(=O)O)NC(=O)[C@H](CCC(N)=O)NC(=O)[C@H](C)NC(=O)[C@@H](NC(=O)[C@H](CCCCN)NC(=O)[C@H](CC(=O)O)NC(=O)[C@H](CC(C)C)NC(=O)C(C)(C)NC(=O)[C@@H](NC(=O)[C@H](CO)NC(=O)[C@H](Cc1ccc(O)cc1)NC(=O)[C@H](CC(=O)O)NC(=O)[C@H](CO)NC(=O)[C@@H](NC(=O)[C@H](Cc1ccccc1)NC(=O)[C@@H](NC(=O)CNC(=O)[C@H](CCC(=O)O)NC(=O)C(C)(C)NC(=O)[C@@H](N)Cc1ccc(O)cc1)[C@@H](C)O)[C@@H](C)O)[C@@H](C)CC)[C@@H](C)CC)C(C)C)C(=O)N[C@@H](C)C(=O)NCC(=O)NCC(=O)N1CCC[C@H]1C(=O)N[C@@H](CO)C(=O)N[C@@H](CO)C(=O)NCC(=O)N[C@@H](C)C(=O)N1CCC[C@H]1C(=O)N1CCC[C@H]1C(=O)N1CCC[C@H]1C(=O)N[C@@H](CO)C(N)=O,,"human, severe hepatic impairment","subcutaneous, 5 mg",,tmax,24 h
